Published values of several laboratories.
Protocols differ between the studies behind these lines. Numbers after ± are the reported error.

Structure (SMILES)	cell line	test	setting	IC50
CC(C)C[C@H](NC(=O)[C@H](CC(C)C)NC(=O)[C@H](CCC(=O)O)NC(=O)[C@H](Cc1c[nH]cn1)NC(=O)[C@H](CC(C)C)NC(=O)[C@H](Cc1c[nH]cn1)NC(=O)[C@H](CCC(=O)O)NC(=O)[C@H](CC(C)C)NC(=O)[C@H](CC(C)C)NC(=O)[C@H](CCC(=O)O)NC(=O)[C@H](Cc1c[nH]cn1)NC(=O)[C@@H](N)CC(C)C)C(=O)N[C@@H](CCC(=O)O)C(=O)N[C@@H](Cc1c[nH]cn1)C(N)=O	RG	cell viability, MTT	0.5 h, pH 7.4	> 100 µM
C=C(C)CC(OC)C(O)C(=O)NC(OC)C1CC(OC(C)=O)C(C)(C)C(CC(O)C(C)C2Cc3c(C)c(O)cc(O)c3C(=O)O2)O1 (single isomer, unassigned; (+))	A2058	cell growth or viability		0.0004 µM
[Cl][Au-]1([Cl])[c]2ccccc2P(c2ccccc2)(c2ccccc2)=[N+]1c1ccccc1	Jurkat	cell growth or viability, flow cytometry	24 h	2.57 µM
NC(=O)N/N=C/c1ccc(OCc2cccc(F)c2)cc1	IMR-32	cell growth or viability, MTT	24 h	14.3 µg/mL
Cc1cc(C)c(-n2ccn(-c3c(C)cc(C)cc3C)c2=[Se])c(C)c1.[Cl][Au]	A2780	cell growth or viability, MTT	72 h	0.4 µM
NC1CC1c1ccc(NC(=O)c2cccc(NC(=O)OCc3ccccc3)c2)cc1 (stereo not shown)	MV4-11 (AML)			1.7 ± 0.02 µM
O=C(Cc1ccc2ccccc2c1)N[C@H](Cc1ccc(OP(=O)(O)O)cc1)C(=O)N[C@H](Cc1ccccc1)C(=O)N[C@H](Cc1ccccc1)C(=O)N[C@H](Cc1ccc(OP(=O)(O)O)cc1)C(=O)O	HS5	cell growth or viability, MTT		> 483 µg/mL
C#CCN[C@@H]1C=C[C@]2(O[C@H]([C@@H](CC)C(=O)[C@@H](C)[C@@H](O)[C@H](C)[C@@H]3O[C@@H]([C@@H](CC)C(=O)O)CC[C@@H]3C)[C@@H](C)C[C@H]2C)O[C@@]12CC[C@@](C)([C@H]1CC[C@](O)(CC)[C@H](C)O1)O2	HMLER CD24high/CD44low	cell viability, CellTiter-Blue	72 h	1.75 ± 0.06 µM
CC(C)C[C@H](NC(=O)[C@H](CCCCN)NC(=O)[C@H](CC(C)C)NC(=O)[C@H](CC(C)C)NC(=O)[C@H](CCCCN)NC(=O)[C@H](CCCCN)NC(=O)[C@H](CC(C)C)NC(=O)[C@H](CC(C)C)NC(=O)[C@H](CCCCN)NC(=O)[C@H](CC(C)C)NC(=O)[C@H](CC(C)C)NC(=O)[C@H](CCCCN)NC(=O)[C@H](CCCCN)NC(=O)[C@H](CC(C)C)NC(=O)[C@@H](N)CSSC[C@H](N)C(=O)N[C@@H](CC(C)C)C(=O)N[C@@H](Cc1c[nH]cn1)C(=O)N[C@@H](CCC(=O)O)C(=O)N[C@@H](CC(C)C)C(=O)N[C@@H](CC(C)C)C(=O)N[C@@H](CCC(=O)O)C(=O)N[C@@H](Cc1c[nH]cn1)C(=O)N[C@@H](CC(C)C)C(=O)N[C@@H](Cc1c[nH]cn1)C(=O)N[C@@H](CCC(=O)O)C(=O)N[C@@H](CC(C)C)C(=O)N[C@@H](CC(C)C)C(=O)N[C@@H](CCC(=O)O)C(=O)N[C@@H](Cc1c[nH]cn1)C(N)=O)C(N)=O	HK-2	cell growth or viability, MTT	pH 6	11.7 µM
CC(=O)c1nn(-c2ccc([N+](=O)[O-])cc2)c2nc3nc(-c4ccccc4)cc(-c4ccc5ccccc5n4)c3c(=O)n12	RPE-1	cell growth or viability, MTT	48 h	24.1 µM
C[C@H]1C(OCCCCCCCCCC[P+](c2ccccc2)(c2ccccc2)c2ccccc2)O[C@@H]2O[C@@]3(C)CCC4[C@H](C)CCC1[C@]42OO3 (stereo partly shown)	SK-OV-3	cell growth or viability, MTT	72 h	0.0653 µM
CC(C)C[C@H](NC(=O)[C@H](CCCCN)NC(=O)[C@H](CC(C)C)NC(=O)[C@H](CC(C)C)NC(=O)[C@H](CCCCN)NC(=O)[C@H](CCCCN)NC(=O)[C@H](CC(C)C)NC(=O)[C@H](CC(C)C)NC(=O)[C@H](CCCCN)NC(=O)[C@H](CC(C)C)NC(=O)[C@H](CC(C)C)NC(=O)[C@H](CCCCN)NC(=O)[C@H](CCCCN)NC(=O)[C@H](CC(C)C)NC(=O)[C@@H](N)CSSC[C@H](N)C(=O)N[C@@H](CC(C)C)C(=O)N[C@@H](CCC(=O)O)C(=O)N[C@@H](Cc1c[nH]cn1)C(=O)N[C@@H](CC(C)C)C(=O)N[C@@H](CC(C)C)C(=O)N[C@@H](CCC(=O)O)C(=O)N[C@@H](Cc1c[nH]cn1)C(=O)N[C@@H](CC(C)C)C(=O)N[C@@H](CCC(=O)O)C(=O)N[C@@H](Cc1c[nH]cn1)C(=O)N[C@@H](CC(C)C)C(=O)N[C@@H](CC(C)C)C(=O)N[C@@H](CCC(=O)O)C(=O)N[C@@H](Cc1c[nH]cn1)C(N)=O)C(N)=O	RG	cell viability, MTT	0.5 h, pH 7.4	> 100 µM
CC(C)C[C@@H](NC(=O)CCNc1ccc([N+](=O)[O-])c2nonc12)C(=O)N[C@H](CC(C)C)C(=O)N[C@H](CC(C)C)C(=O)N[C@H](CC(C)C)C(=O)N[C@H](Cc1ccc(OP(=O)(O)O)cc1)C(=O)O	SJSA-1	cell viability, MTT	24 h	69 µM
O=C1[O][Pt]2([OH])([OH])([NH]C3CCCCC3[NH]2)[O]C1=O (stereo not shown)	IMR-90	cell growth or viability, resazurin	72 h	> 100 µM
CC(C)C[C@H](NC(=O)[C@H](C)NC(=O)[C@H](CCCCN)NC(=O)[C@H](C)NC(=O)[C@H](C)NC(=O)[C@@H]1CSCc2cccc(c2)CSC[C@H](NC(=O)[C@H](CCCCN)NC(=O)[C@H](Cc2ccccc2)NC(=O)CN)C(=O)N[C@@H](CC(C)C)C(=O)N[C@@H](CC(C)C)C(=O)N[C@@H](CCCCN)C(=O)N1)C(=O)N[C@H](C(=O)N[C@@H](CCCCN)C(=O)N[C@H](C(=O)N[C@H](C(=O)N[C@@H](CC(C)C)C(=O)N[C@@H](Cc1ccccc1)C(N)=O)C(C)C)[C@@H](C)O)C(C)C	U87	cell proliferation, CCK-8	48 h	16.7 µM
O=C(Cc1ccc2ccccc2c1)N[C@H](Cc1ccccc1)C(=O)N[C@H](Cc1ccccc1)C(=O)N[C@H](Cc1ccc(OP(=O)(O)O)cc1)C(=O)N[C@H](Cc1ccc(OP(=O)(O)O)cc1)C(=O)O	HS5	cell growth or viability, MTT		> 483 µg/mL
[Cl][Au].[Se]=c1n(C2CCCCC2)ccn1C1CCCCC1	A2780	cell growth or viability, MTT	72 h	0.3 µM
C#CCSc1nc(Sc2nnnn2C)c2nnn(Cc3ccccc3)c2n1	OCI-AML-3	cell growth or viability, MTS	6 days	2.5 µM
CC(C)C[C@H](NC(=O)[C@H](CCCCN)NC(=O)[C@H](CC(C)C)NC(=O)[C@H](CC(C)C)NC(=O)[C@H](CCCCN)NC(=O)[C@H](CCCCN)NC(=O)[C@H](CC(C)C)NC(=O)[C@H](CC(C)C)NC(=O)[C@H](CCCCN)NC(=O)[C@H](CC(C)C)NC(=O)[C@H](CC(C)C)NC(=O)[C@H](CCCCN)NC(=O)[C@H](CCCCN)NC(=O)[C@H](CC(C)C)NC(=O)[C@@H](N)CSSC[C@H](N)C(=O)N[C@@H](CC(C)C)C(=O)N[C@@H](CCC(=O)O)C(=O)N[C@@H](CCC(=O)O)C(=O)N[C@@H](CC(C)C)C(=O)N[C@@H](CC(C)C)C(=O)N[C@@H](Cc1c[nH]cn1)C(=O)N[C@@H](Cc1c[nH]cn1)C(=O)N[C@@H](CC(C)C)C(=O)N[C@@H](CCC(=O)O)C(=O)N[C@@H](CCC(=O)O)C(=O)N[C@@H](CC(C)C)C(=O)N[C@@H](CC(C)C)C(=O)N[C@@H](Cc1c[nH]cn1)C(=O)N[C@@H](Cc1c[nH]cn1)C(N)=O)C(N)=O	RG	cell viability, MTT	0.5 h, pH 7.4	> 100 µM
CC(=O)N[C@@H](Cc1c[nH]c2ccccc12)C(=O)N[C@@H](CCC(=O)O)C(=O)N[C@@H](Cc1c[nH]cn1)C(=O)N[C@@H](CC(=O)O)C(=O)COC(=O)c1c(C)cccc1C	EA.hy926	pyroptosis, inhibitor, propidium iodide uptake	added: 20 µM Val-boroPro	~2.5 µM
Cc1cc(Nc2nc(C[C@@]3(C(=O)O)CCN(Cc4cccc(Cl)c4F)[C@H](C)C3)cc(C)c2F)[nH]n1	sensitive breast cancer lines	cell proliferation	mean	0.0504 µM
CC(C)C[C@H](NC(=O)[C@H](CC(C)C)NC(=O)[C@H](Cc1c[nH]cn1)NC(=O)[C@H](CCC(=O)O)NC(=O)[C@H](CC(C)C)NC(=O)[C@H](Cc1c[nH]cn1)NC(=O)[C@H](CCC(=O)O)NC(=O)[C@H](CC(C)C)NC(=O)[C@H](CC(C)C)NC(=O)[C@H](Cc1c[nH]cn1)NC(=O)[C@H](CCC(=O)O)NC(=O)[C@@H](N)CC(C)C)C(=O)N[C@@H](CCC(=O)O)C(=O)N[C@@H](Cc1c[nH]cn1)C(N)=O	RG	cell viability, MTT	0.5 h, pH 6.0	> 100 µM
C[C@H]1[C@H](OC(=O)CCC(=O)OCCc2ccc(O)cc2)O[C@@H]2O[C@@]3(C)CC[C@H]4[C@H](C)CC[C@@H]1[C@@]24OO3	RPMI-7951	cell viability, MTT	24 h, without deferoxamine	0.09 ± 0.05 µM
Cc1cc(C)c(N2CCN(c3c(C)cc(C)cc3C)C2=[Se])c(C)c1.[Cl][Au]	A-431	cell growth or viability, MTT	72 h	1.8 µM
C=C(C)CC(OC)C(O)C(=O)NC(OC)C1CC(=NOC)C(C)(C)C(CC(O)C(C)C2Cc3c(C)c(O)cc(O)c3C(=O)O2)O1 (single isomer, unassigned; (+))	H522-T1	cell growth or viability		0.0008 µM
Cc1cc(C)c(-n2c[n+](-c3c(C)cc(C)cc3C)c3c2-c2cccc4cccc-3c24)c(C)c1.[Cl][Pd-]([Cl])[CH2]C=Cc1ccccc1	C13 cisplatin-resistant	cell viability, MTT	72 h	2.6 ± 0.4 µM
N=C(N)NCCC[C@H](NC(=O)[C@H](CCCNC(=N)N)NC(=O)[C@@H]1CCCN1C(=O)[C@H](CCCNC(=N)N)NC(=O)[C@H](CCCNC(=N)N)NC(=O)[C@H](CCCNC(=N)N)NC(=O)[C@H](Cc1c[nH]c2ccccc12)NC(=O)[C@H](CCCNC(=N)N)NC(=O)[C@H](CCCNC(=N)N)NC(=O)[C@H](CCCNC(=N)N)NC(=O)[C@H](CCCNC(=N)N)NC(=O)[C@H](CCCNC(=N)N)NC(=O)[C@H](Cc1c[nH]c2ccccc12)NC(=O)[C@H](CCCNC(=N)N)NC(=O)[C@H](CCCNC(=N)N)NC(=O)[C@H](Cc1ccc(O)cc1)NC(=O)[C@H](CCCNC(=N)N)NC(=O)[C@H](CCCNC(=N)N)NC(=O)[C@H](CCCNC(=N)N)NC(=O)[C@@H](N)Cc1c[nH]c2ccccc12)C(N)=O	BT-20	cell viability, CellTiter-Blue	24 h, serum-free medium	4.2 ± 2.2 µM
CN(C)C1=[S+][Au-]2([S]1)[c]1ccccc1-c1cccc[c]12	BT-333 glioblastoma	MTT	72 h	1.99 ± 0.07 µM

A few entries again:
Structure (SMILES)	cell line	test	setting	IC50
CC(C)C[C@H](NC(=O)[C@H](CCCCN)NC(=O)[C@H](CC(C)C)NC(=O)[C@H](CC(C)C)NC(=O)[C@H](CCCCN)NC(=O)[C@H](CCCCN)NC(=O)[C@H](CC(C)C)NC(=O)[C@H](CC(C)C)NC(=O)[C@H](CCCCN)NC(=O)[C@H](CC(C)C)NC(=O)[C@H](CC(C)C)NC(=O)[C@H](CCCCN)NC(=O)[C@H](CCCCN)NC(=O)[C@H](CC(C)C)NC(=O)[C@@H](N)CSSC[C@H](N)C(=O)N[C@@H](CC(C)C)C(=O)N[C@@H](Cc1c[nH]cn1)C(=O)N[C@@H](CCC(=O)O)C(=O)N[C@@H](CC(C)C)C(=O)N[C@@H](CC(C)C)C(=O)N[C@@H](CCC(=O)O)C(=O)N[C@@H](Cc1c[nH]cn1)C(=O)N[C@@H](CC(C)C)C(=O)N[C@@H](Cc1c[nH]cn1)C(=O)N[C@@H](CCC(=O)O)C(=O)N[C@@H](CC(C)C)C(=O)N[C@@H](CC(C)C)C(=O)N[C@@H](CCC(=O)O)C(=O)N[C@@H](Cc1c[nH]cn1)C(N)=O)C(N)=O	HK-2	cell growth or viability, MTT	pH 6	11.7 µM
CC(=O)c1nn(-c2ccc([N+](=O)[O-])cc2)c2nc3nc(-c4ccccc4)cc(-c4ccc5ccccc5n4)c3c(=O)n12	RPE-1	cell growth or viability, MTT	48 h	24.1 µM
